Results collected from several papers.
Parts stem from different laboratories: compare values within a part only.

Study 1 — target: UBE2O UBC core domain (UniProt Q9C0C9); method: yeast two-hybrid; matrix: yeast; notes: mostly zero background; baseline: not given; reading: higher = stronger interaction; endpoint: lacZ reporter activity
B1: RNF112 RING domain (UniProt Q9ULX5); chain QPMAPRELPTCSICLERLRDPISLDCGHDFCIRCFSTHRLPGCEPPCCPECRKICKQKRGLR
B2: RNF14 RING domain (UniProt Q9UBS8); chain IKCFNSKLFLCSICFCEKLGSECMYFLECRHVYCKACLKDYFEIQIRDGQVQCLNCPEPKCPSVATPGQVK
B3: RFPL2 RING domain (UniProt O75678); chain MAALFQEASSCPVCSDYLEKPMSLECGCAVCLKCINSLQKEPHGEDLLCCCSSMVSRKNKIRR
B4: TRIM52 RING domain (UniProt Q96A61); chain PMQTLQEEAVCAICLDYFKDPVSISCGHNFCRGCVTQLWSKEDEEDQNEEEDEWEEEEDEEAV
B5: RNF32 RING domain (UniProt Q9H0A6); chain SLLQGDSVQPCPICKEEFELRPQVLLSCSHVFHKACLQAFEKFTNKKTCPLCRKNQYQTRVIH
B6: RNF175 RING domain (UniProt Q8N4F7); chain LPTRSLSDNICAVCGQKIIVELDEEGLIENTYQLSCNHVFHEFCIRGWCIVGKKQTCPYCKEKVDLKRMIS
B7: TRIM55 RING domain (UniProt Q9BYV6); chain TMDNLEKQLICPICLEMFTKPVVILPCQHNLCRKCASDIFQASNPYLPTRGGTTMASGGRFRCPSCRHEVVLDRHG
B8: ANKIB1 RING domain (UniProt Q9P2G1); chain LSPGDLDTSLCDICMCSISVFEDPVDMPCGHDFCRGCWESFLNLKIQEGEAHNIFCPAYDCFQLVPVDIIE
B9: RNF150 RING domain (UniProt Q9ULK6); chain DKETESDFDNCAVCIEGYKPNDVVRILPCRHLFHKSCVDPWLLDHRTCPMCKMNILKALGIP
B10: TRIM38 RING domain (UniProt O00635); chain STKKMMEEATCSICLSLMTNPVSINCGHSYCHLCITDFFKNPSQKQLRQETFCCPQCRAPFHMDSLRP
Residues (chain): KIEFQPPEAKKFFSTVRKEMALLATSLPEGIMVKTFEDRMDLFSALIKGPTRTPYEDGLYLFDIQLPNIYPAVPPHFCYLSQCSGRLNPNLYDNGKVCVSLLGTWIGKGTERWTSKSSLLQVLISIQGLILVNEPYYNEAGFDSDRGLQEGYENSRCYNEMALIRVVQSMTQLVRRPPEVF
B1 (RNF112 RING domain): 0
B2 (RNF14 RING domain): 0
B3 (RFPL2 RING domain): 0
B4 (TRIM52 RING domain): 0
B5 (RNF32 RING domain): 0
SYEDKSNDFVCPICFDMIEEAYMTKCGHSFCYKCIHQSLEDNNRCPKCNYVVDNIDHLY (COP1 RING domain (UniProt Q8NHY2)): 0
B6 (RNF175 RING domain): 0
B7 (TRIM55 RING domain): 0
LKQVSIRENCCSLCCDEVADTQLKPCGHSDLCMDCALQLETCPLCRKEIVSRIRQI (RSPRY1 RING domain (UniProt Q96DX4)): 0
KRQCSDVDDICSICQAEFQKPILLICQHIFCEECMTLWFNREKTCPLCRTVISDHINKW (RNFT1 RING domain (UniProt Q5M7Z0)): 0
B8 (ANKIB1 RING domain): 0
B9 (RNF150 RING domain): 0
B10 (TRIM38 RING domain): 0

Study 2 — method: protein-binding microarray; molecule type: double-stranded DNA, one strand shown; matrix: in vitro; concentration: 2540 nM top; notes: 60-bp whole probe; together with: salmon DNA 0.4 mg/ml; baseline: random background probes; reading: higher = stronger binding; endpoint: fitted relative affinity; constant ends, left off below: GCCTAGCAC … GTCTTGATTCGCTTGACGCTGCTG
Target: Interferon regulatory factor 3, full length, phosphomimetic (IRF3, Homo sapiens, UniProt Q14653, residues 1-427, S386D/S396D/S398D/S402D/T404D/S405D)
Construct (chain): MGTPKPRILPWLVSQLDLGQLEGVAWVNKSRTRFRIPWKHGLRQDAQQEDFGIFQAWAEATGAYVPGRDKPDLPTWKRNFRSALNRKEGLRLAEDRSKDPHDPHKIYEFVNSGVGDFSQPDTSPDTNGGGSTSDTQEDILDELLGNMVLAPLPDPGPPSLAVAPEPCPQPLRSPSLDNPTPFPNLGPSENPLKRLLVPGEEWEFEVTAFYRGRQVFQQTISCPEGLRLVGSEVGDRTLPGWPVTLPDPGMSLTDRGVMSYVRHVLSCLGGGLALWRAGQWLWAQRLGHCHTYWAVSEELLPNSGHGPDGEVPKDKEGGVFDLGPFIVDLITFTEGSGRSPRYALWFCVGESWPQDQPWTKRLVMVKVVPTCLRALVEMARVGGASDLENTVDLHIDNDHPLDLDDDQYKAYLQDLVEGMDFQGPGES
GAAGTTCTAAATATCTTTGTGTGCTAG: -0.282 z-score
GACGAACTGAGCTTCGAGACGTGCTAG: -0.285 z-score
GACAATTTCAGTATCGAGACGTGCTAG: 2.09 z-score
TTACGTTTCGGACTGGGTTAGTGCTAG: 3.41 z-score
TTAGGTCTCGGTATAGGTTAGTGCTAG: 0.436 z-score
CCTTTTTTTTTTTTTCTGATGTGCTAG: 2.75 z-score
TTAGAACTGGGGACTGGACTAGTGCTA: -0.93 z-score
GACGGACTGGCCTTTCGGGACGTGCTA: -0.575 z-score
GACGATATCAGTATAGAGACGTGCTAG: 0.69 z-score
TTAGCTCTCAGACTGGATTAGTGCTAG: -0.214 z-score
TCATCTTTCTACATAGAACTGTGCTAG: 1.67 z-score
GACGGTATCGGGACCGGGGACGTGCTA: 1.49 z-score
TCATATTAGAGTCTCAAACTGTGCTAG: 0.632 z-score
TTAGGTTTCGGCACTGGGTTAGTGCTA: 2.49 z-score

Study 3 — method: protein binding microarray; molecule type: double-stranded DNA, one strand shown; matrix: in vitro; concentration: not given; baseline: not given; reading: higher = stronger binding; endpoint: E-score
Target: Histone acetyltransferase KAT6A, both winged helices, GST fusion (KAT6A, Homo sapiens, UniProt Q92794, residues 1-181)
Notes: 8-mer, flanks averaged, mean of 2 arrays, mostly near background
Target sequence (chain): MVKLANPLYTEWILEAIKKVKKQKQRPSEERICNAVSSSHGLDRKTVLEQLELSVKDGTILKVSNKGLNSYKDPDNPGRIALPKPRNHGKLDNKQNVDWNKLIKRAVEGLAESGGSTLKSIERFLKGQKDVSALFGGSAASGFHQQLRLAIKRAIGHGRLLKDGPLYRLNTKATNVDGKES
ATGTTATC: -0.0676
TTATTCAA: 0.0767
AGGGATCC: 0.00991
CTTACATA: -0.109
CGAAGTGA: -0.0697
ATTACCAG: -0.0882
ATAGTTAG: -0.131
GTCCGTGA: 0.213
ATGAGCGA: 0.21
GACCCCCC: -0.102
GGGAGAAC: -0.097
CTGAAGAA: -0.0831
ACATTGAT: 0.141
ATGGCGCG: 0.227
CCCGATCC: -0.0906
CAGGTTTC: -0.151

Study 4 — method: RNA Bind-n-Seq; molecule type: RNA; matrix: in vitro; concentration: 365 nM; baseline: no-protein control; reading: higher = stronger binding; endpoint: RBNS enrichment (R)
Target: RNA binding protein fox-1 homolog 2, RRM domain, GST-SBP tag (RBFOX2, Homo sapiens, UniProt O43251-10, residues 100-194)
Notes: natural RNA segment, single round, ends assumed
Residues (chain): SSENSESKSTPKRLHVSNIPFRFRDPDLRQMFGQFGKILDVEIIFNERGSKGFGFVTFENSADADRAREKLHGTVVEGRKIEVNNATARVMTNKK
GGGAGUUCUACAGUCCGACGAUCCACAGAAGCACAAUUUUGCCCUUUGCGAGACAUUGUUGCCUCUAUCUAGUCCUACAAGUAGGGUUUUGCAUACUGUGUUUGCCCCUAGGGUUGUCAGUGCAUCAGAAAUAUGGAAUUCUCGGGUGCCAA: 1.15
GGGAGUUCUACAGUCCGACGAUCUUUGAUGCUAGAAAACACAUAUUUUUAAAUGGAAGAAAAAUAAAAAGGCAUUCCCCCUUCAUCCCCCUACCUUAAACAUAUAAUAUUUUAAAGGUCAAAAAAGCAAUCCAUGGAAUUCUCGGGUGCCAA: 0.436
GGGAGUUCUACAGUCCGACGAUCCUAUUUCAUUGGAUCAGGAAAUCAUCCACUUGCCAACCAGGCUCCAGUACUGGGAAACAUGGAAUGUGGCAAACUGUCCCACACUCCAAGCCAUUCUCCAAGGGGGCCUGUGGAAUUCUCGGGUGCCAA: 0.258
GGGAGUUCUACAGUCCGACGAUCUGGACCUUGAGCAACUGUGCACGCUUCACUCUAAUAGCAUGGUUUGGCCAGUGUAUUAGCUCUCAAGUUCUUUCCUCAAUUGACUUCUGCUAUUAAAGUAAUGAUUUCAUUGGAAUUCUCGGGUGCCAA: 3.57
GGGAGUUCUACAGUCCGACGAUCUAGGUGGGUGGUGUGCAUAGGCCACGUGUGCCCCACAUAUGCAGGGGGUGCCCCACACAGCUAGAGCGGCCAGGAGAGCGCCUCCUAACCACCAGCCGUUCCUGAUCUCAUGGAAUUCUCGGGUGCCAA: 0.315
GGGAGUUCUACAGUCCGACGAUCUAUUUCCAGCCACCUCCCAUCCCUUCUUCAAGCUUAGCCAGAUCCUAUCUCGCCCAGUGAAAUCACAGGAAGUUUAACGUAUCUCAGAGGCCUUUGAGUUCCCACUCAAUUGGAAUUCUCGGGUGCCAA: 0.301
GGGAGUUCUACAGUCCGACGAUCUAAUACAUUGUAAAAAGUAUUAAAUCCUUUGAAACAUCUUUUGUUGCUUAUUUAGUUUUUGUUUCUACAGGUCAAACAUGAUUGCUUUCUAUAAAAGAAAUGCUUGAGAGUGGAAUUCUCGGGUGCCAA: 0.908
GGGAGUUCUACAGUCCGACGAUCGGACUGCAAAUGCCAGGCUUUCCUUGGCCAUGUAUCUAAAAUCCCAUAAACUCCUCCCUUUGGGAGGCUGGCAAAAAAGGGGCUGUGCUCUCCCUGGUUAAGCAGUUUGUUGGAAUUCUCGGGUGCCAA: 0.773
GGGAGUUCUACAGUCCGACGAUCAGCAUUUUCUUUAUCUCCGGAUAGCCAUUUCCUGGACUUUUGAACUUCCCAUCUUCUAUGCUUAUGUCCCACUGUGCCUGCUCCCCCAUCCUCUUUCUUGUAGCCUUUUGUGGAAUUCUCGGGUGCCAA: 6.79
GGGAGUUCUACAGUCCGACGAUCAGCAGGUAGGUCAAGAGAUGGGCCAUAUAUAUACUGAUAUACUGGUUGACCUGCCAUCACCGCUCACUGCCAUGUGAAUAGAACUGUUUAUGACUGCAAUUUCUUUUUUCUGGAAUUCUCGGGUGCCAA: 2.71
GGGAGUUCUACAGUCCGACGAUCGACAUAUGAUCCCCACAAACUGUGGGAGUGAUUGGCCAGGCCUUGUUUUGUUUGUUUGUUUGUUUGUGUUUUUGUUCUUUUGAAGAAUAGAGUGGUAUUUAGAAAAUAAAUGGAAUUCUCGGGUGCCAA: 3.37
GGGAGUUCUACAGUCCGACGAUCAGCAGAGUCUAUGAUUCCUACUCUUCUACUUCUUGUACUGAUAUAAGGGUUUGUUUUGUUUUGUUUUUUAAAGUAAGGCUGUCUCUCUUUCCCAGUAACAUUCCUGAGUCUGGAAUUCUCGGGUGCCAA: 0.362

For quick reference, copied from above (study 4):
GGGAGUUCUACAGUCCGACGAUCCUAUUUCAUUGGAUCAGGAAAUCAUCCACUUGCCAACCAGGCUCCAGUACUGGGAAACAUGGAAUGUGGCAAACUGUCCCACACUCCAAGCCAUUCUCCAAGGGGGCCUGUGGAAUUCUCGGGUGCCAA: 0.258
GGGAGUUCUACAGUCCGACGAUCUGGACCUUGAGCAACUGUGCACGCUUCACUCUAAUAGCAUGGUUUGGCCAGUGUAUUAGCUCUCAAGUUCUUUCCUCAAUUGACUUCUGCUAUUAAAGUAAUGAUUUCAUUGGAAUUCUCGGGUGCCAA: 3.57
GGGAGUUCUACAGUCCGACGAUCUAGGUGGGUGGUGUGCAUAGGCCACGUGUGCCCCACAUAUGCAGGGGGUGCCCCACACAGCUAGAGCGGCCAGGAGAGCGCCUCCUAACCACCAGCCGUUCCUGAUCUCAUGGAAUUCUCGGGUGCCAA: 0.315
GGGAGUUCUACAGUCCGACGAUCUAUUUCCAGCCACCUCCCAUCCCUUCUUCAAGCUUAGCCAGAUCCUAUCUCGCCCAGUGAAAUCACAGGAAGUUUAACGUAUCUCAGAGGCCUUUGAGUUCCCACUCAAUUGGAAUUCUCGGGUGCCAA: 0.301
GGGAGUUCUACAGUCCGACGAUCUAAUACAUUGUAAAAAGUAUUAAAUCCUUUGAAACAUCUUUUGUUGCUUAUUUAGUUUUUGUUUCUACAGGUCAAACAUGAUUGCUUUCUAUAAAAGAAAUGCUUGAGAGUGGAAUUCUCGGGUGCCAA: 0.908
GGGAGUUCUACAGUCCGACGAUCGGACUGCAAAUGCCAGGCUUUCCUUGGCCAUGUAUCUAAAAUCCCAUAAACUCCUCCCUUUGGGAGGCUGGCAAAAAAGGGGCUGUGCUCUCCCUGGUUAAGCAGUUUGUUGGAAUUCUCGGGUGCCAA: 0.773
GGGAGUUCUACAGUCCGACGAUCAGCAUUUUCUUUAUCUCCGGAUAGCCAUUUCCUGGACUUUUGAACUUCCCAUCUUCUAUGCUUAUGUCCCACUGUGCCUGCUCCCCCAUCCUCUUUCUUGUAGCCUUUUGUGGAAUUCUCGGGUGCCAA: 6.79
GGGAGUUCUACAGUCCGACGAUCAGCAGGUAGGUCAAGAGAUGGGCCAUAUAUAUACUGAUAUACUGGUUGACCUGCCAUCACCGCUCACUGCCAUGUGAAUAGAACUGUUUAUGACUGCAAUUUCUUUUUUCUGGAAUUCUCGGGUGCCAA: 2.71
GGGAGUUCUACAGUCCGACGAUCGACAUAUGAUCCCCACAAACUGUGGGAGUGAUUGGCCAGGCCUUGUUUUGUUUGUUUGUUUGUUUGUGUUUUUGUUCUUUUGAAGAAUAGAGUGGUAUUUAGAAAAUAAAUGGAAUUCUCGGGUGCCAA: 3.37
